Measured values of several laboratories.
Each numbered part is a random draw from the data of one study; scales do not carry over between parts. Positions count from the first letter of the parent shown.

Block 1
Target: RING finger protein unkempt homolog, zinc fingers 1-6, GST-SBP tag (UNK, Homo sapiens, UniProt Q9C0B0, residues 30-357)
Technique: RNA Bind-n-Seq
Molecule type: RNA
Medium: in vitro
Tested at: not given
Notes: RNA with constant flanks, ends assumed
Baseline: input RNA pool
Direction: higher = stronger binding
Shared flanks, not repeated: GGGAGUUCUACAGUCCGACGAUC … CAACAGAGGAUUGAGCAUCA
Target sequence (chain): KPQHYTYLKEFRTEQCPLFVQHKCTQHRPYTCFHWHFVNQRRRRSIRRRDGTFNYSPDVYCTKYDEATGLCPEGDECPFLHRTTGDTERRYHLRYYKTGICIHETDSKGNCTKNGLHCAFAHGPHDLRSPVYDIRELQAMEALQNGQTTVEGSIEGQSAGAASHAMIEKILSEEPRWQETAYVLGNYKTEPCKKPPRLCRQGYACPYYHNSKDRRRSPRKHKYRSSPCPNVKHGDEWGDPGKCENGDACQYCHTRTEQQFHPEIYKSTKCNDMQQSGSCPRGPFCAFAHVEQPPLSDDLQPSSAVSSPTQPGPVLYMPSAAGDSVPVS
Oligonucleotide | bound/input enrichment [ratio]
GUAUCAAAAGUUUUAUUGUCCAUAUGUUCUCUACUUUGUGAUCCUAAUCCAGAUGACCCCUCCGUACCAGAUAUUGCACAAAUCUAUAAAUCAGACAAAGAAAAAUACAACAGACAUGCA | 0.503
GAAGACCCAUACCCACACAAGUUCCAUGUAGACAUCUCACUCACUGACUUCAUCCAAAAAUACCGUCACCUGCAGCCUGGGGAUCACCUGACUGACAUCACCUUAAAGGUGGCAGGUAGG | 0.389
AUAAAAGCCAUGUUGAGUGGCCCAGGUCAGUUUGCUGAGAACGAAACCAAUGAGGUCAAUUUCCGAGAGAUACCUUCACAUGUGCUAUCGAAAGUAUGCAUGUAUUUUACGUACAAGGUU | 0.0439
GACCCCAUGCUGCUGCAGUUUUUCAAGUCUCAAGGUUAUAGGGACGGCCCCGGUAAUCCUCUCCGGCAUAAUUACGAAGGUACUUUAAGAGAUCUUCUACAAUUCUUCAAGCCAAGACAA | 0.411
CUCACCUAUGAAGUCAUUGGAUUUGCCAAUGUCGUAGUCCCAGACUGUGACCUCCAGGGUCUCCGUGGCCAGAGUGGAGAGUUCAAUCUCAUAGAAGAAUUCCUGAGAACAAAGGCAGGC | 0.254
GAUGAUAAUCACACAAAUGUGGCACUUUUAUGUGACCAGAGUUGUACUUCUUCUCCUGAUCCGUAUUCUCCCUGGAACCACUAGCCAAGGGGAAUCAAGACGACAAGAACCUGGGGACUU | 0.176
GUUGAUGUGGAUUCUCUUGCUGAGUUAGAUGAUGGAAUGGCUUCCAAUCAAAAUUCUCCCAUCCGAACUUUUGGUCUCAAUCUUUCUUCGGAUUCUUCAGCACUAGGGGCUGUUGCUUCU | 0.378
AAUGGAGUGACUUUGCGUAGGCUUGCGGGUGUCCAGGCCGCCUAGGCUGGAGAGAAAGCCAGCCGAAAUAGAUAUGAUUGUAGGAAAAGACCGGGAAGGUUUCUUUACCAACGGUUUGAC | 0.674

Block 2
Target: CCNB2, cyclin fold, Cln2 fusion (human)
Technique: yeast growth competition, sequencing
Medium: yeast
Notes: weak parent motif
Baseline: not given
Direction: higher = stronger binding
Starting sequence: E2F8 docking peptide (human); FVPQRKLEVSTED; partner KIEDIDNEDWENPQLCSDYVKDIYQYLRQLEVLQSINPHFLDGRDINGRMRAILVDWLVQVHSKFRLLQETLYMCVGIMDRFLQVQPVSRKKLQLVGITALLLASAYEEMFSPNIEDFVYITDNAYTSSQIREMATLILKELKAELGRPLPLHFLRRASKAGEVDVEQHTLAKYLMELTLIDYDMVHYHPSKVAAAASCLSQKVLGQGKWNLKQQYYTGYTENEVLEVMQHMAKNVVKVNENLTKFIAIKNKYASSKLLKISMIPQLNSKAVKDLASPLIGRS
Variant | normalised enrichment score
FVPQRKLEASTED [V9A] | -0.149
FVPQRKLELSTED [V9L] | -0.33
FVPQRKLEVSAED [T11A] | -0.0666
FVPQAKLEVSTED [R5A] | -0.348
FVPQRKLEVSTAD [E12A] | -0.192
FVPQKKLEFSTED [R5K V9F] | 0.0151
FVPQRKAEVSTED [L7A] | 0.00322
FAPQRKLEVSTED [V2A] | -0.141

Block 3
Target: RNA binding protein fox-1 homolog 2, RRM domain, GST-SBP tag (RBFOX2, Homo sapiens, UniProt O43251-10, residues 100-194)
Technique: RNA Bind-n-Seq
Molecule type: RNA
Medium: in vitro
Tested at: 365 nM
Notes: natural RNA segment, single round, ends assumed
Baseline: no-protein control
Direction: higher = stronger binding
Shared flanks, not repeated: GGGAGUUCUACAGUCCGACGAUC … UGGAAUUCUCGGGUGCCAA
Residues (chain): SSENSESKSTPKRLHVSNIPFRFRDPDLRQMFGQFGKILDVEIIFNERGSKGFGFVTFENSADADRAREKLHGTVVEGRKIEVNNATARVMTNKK
Oligonucleotide | RBNS enrichment (R)
GUUAAUCAACCUUCAAACCAGUCUUGAAGCCAGCUACUUGUUUCUUCAUCUCAGACUCCUAGGGGAAUGAAAGCUGUCUUCUGUGAAUGUGCAAGGGUUUGGCUCGUGUC | 1.26
UAAGAAAAGCUUGGUAGGAGCUUGCUGCUAUGGAGGAAAGAACAUAUUAAAAACUUAUUUUCCCUCGGGUUUGUUCUCGUUUUAUGUUUUUGUUGUUGUUGUUUUGUUAG | 0.638
UCUGUAUAUUGGCAUCAGGUGGCAGCUGAAUAUCUUUUGAAUUACUCGAAGGUAAAGCCAGAUGCCAGAAUGAAGGUGUAGCCAGUGUUUCCCAUAUGCCCCUGGAGCCC | 0.36
GCCUUGGGGACCCUUUCUUCUCUCUGAUGAUGGCAGUCUGGAAUAAAGCACUGUCACCUUUGACUCUAUUACCUGUUGCAAAGCCAGAGGGCUGCCCUUCUCUGCAAAAC | 0.487
GAAAGCCACUCUAUUUUGGUCUCUGUGACAUUUUAAAUGCGUGACAGAAGUGAGCAAAUAAAGUGAGGAAGAAAUCUAUAUAUGAGAUAAUAUAGAUUGUAUUGAAAUCU | 0.385
CUAACAGUUACUCUGAAGAUGUGUCAUGAUUUGUGAGCCUUUGGAUCUGGGUAAAUAGAGGACAAAACUAAUUCUUUGAGGCUUUAACUUGGGCACUUGCCUUGAUUCCU | 0.719
UUUGCAGCCUCAUAGGGUGGGAUACAGCAGCUUUUUUUGCAGUUAUCCACACUCACAUUUCAGAGUCCUGACUCUCAAGGAACCACUGGUUUUUGGGAUAGAACUUGGGC | 0.244
UUAUUUUUGCUGAUUUGAUGUGGUUUCAACUAACCCAAGGUCUCACAAUGUUCAAAUGGCGGCUGACUCUACAGCAUUCUGUAGGUCCCUGCCCCCCUAGCUGAAGGGGU | 0.323

Block 4
Target: UBE2V1 UBC core domain (UniProt Q13404)
Technique: yeast two-hybrid
Medium: yeast
Notes: mostly zero background
Baseline: not given
Direction: higher = stronger interaction
B1: TRIM43 RING domain (UniProt Q96BQ3); chain FSHAFQKELTCVICLNYLVDPVTICCGHSFCRPCLCLSWEEAQSPANCPACREPSPKMDFKT
B2: SH3RF2 RING domain (UniProt Q8TEC5); chain DDLTLLDLLECPVCFEKLDVTAKVLPCQHTFCKPCLQRVFKAHKELRCPECRTPVFSNIEAL
B3: VPS41 RING domain (UniProt P49754); chain KGVLVDEENICESCLSPILPSDAAKPFSVVVFHCRHMFHKECLPMPSMNSAAQFCNICSAKNRGPGSAI
B4: TRIM40 RING domain (UniProt Q6P9F5); chain LQKDNQEEGVCPICQESLKEAVSTNCGHLFCRVCLTQHVEKASASGVFCCPLCRKPCSEEVLG
B5: RNF111 RING domain (UniProt Q6ZNA4); chain EGTEEDTEEKCTICLSILEEGEDVRRLPCMHLFHQVCVDQWLITNKKCPICRVDIEAQLPSE
Target sequence (chain): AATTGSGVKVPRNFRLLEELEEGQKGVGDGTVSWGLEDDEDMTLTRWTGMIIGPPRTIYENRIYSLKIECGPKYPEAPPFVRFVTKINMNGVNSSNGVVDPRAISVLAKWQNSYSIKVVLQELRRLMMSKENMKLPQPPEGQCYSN
Sequence | lacZ reporter activity
B1 (TRIM43 RING domain) | 0
B2 (SH3RF2 RING domain) | 0
GAAPGPEAAECLVCSELALLVLFSPCQHRTVCEECARRMKKCIRCQVVVSKKLRPD (MIB2 RING domain (UniProt Q96AX9)) | 0
B3 (VPS41 RING domain) | 0
B4 (TRIM40 RING domain) | 0
B5 (RNF111 RING domain) | 0
QVDKAVFHMQSVKCLKCQEQKRAVLPCQHAALCELCAEGSECPICQPGRAHTLQS (UNK RING domain (UniProt Q9C0B0)) | 0

Excerpt of the above (block 3):
Oligonucleotide | RBNS enrichment (R)
CUAACAGUUACUCUGAAGAUGUGUCAUGAUUUGUGAGCCUUUGGAUCUGGGUAAAUAGAGGACAAAACUAAUUCUUUGAGGCUUUAACUUGGGCACUUGCCUUGAUUCCU | 0.719
GAAAGCCACUCUAUUUUGGUCUCUGUGACAUUUUAAAUGCGUGACAGAAGUGAGCAAAUAAAGUGAGGAAGAAAUCUAUAUAUGAGAUAAUAUAGAUUGUAUUGAAAUCU | 0.385
UAAGAAAAGCUUGGUAGGAGCUUGCUGCUAUGGAGGAAAGAACAUAUUAAAAACUUAUUUUCCCUCGGGUUUGUUCUCGUUUUAUGUUUUUGUUGUUGUUGUUUUGUUAG | 0.638
UCUGUAUAUUGGCAUCAGGUGGCAGCUGAAUAUCUUUUGAAUUACUCGAAGGUAAAGCCAGAUGCCAGAAUGAAGGUGUAGCCAGUGUUUCCCAUAUGCCCCUGGAGCCC | 0.36
